# Results pooled from the literature.
# Numbers after ± are the reported error.
# TDP1: Tyrosyl-DNA phosphodiesterase 1 (TDP1, Homo sapiens, UniProt Q9NUW8)
# UniProt Q9NUW8, sequence (whole entry, looked up): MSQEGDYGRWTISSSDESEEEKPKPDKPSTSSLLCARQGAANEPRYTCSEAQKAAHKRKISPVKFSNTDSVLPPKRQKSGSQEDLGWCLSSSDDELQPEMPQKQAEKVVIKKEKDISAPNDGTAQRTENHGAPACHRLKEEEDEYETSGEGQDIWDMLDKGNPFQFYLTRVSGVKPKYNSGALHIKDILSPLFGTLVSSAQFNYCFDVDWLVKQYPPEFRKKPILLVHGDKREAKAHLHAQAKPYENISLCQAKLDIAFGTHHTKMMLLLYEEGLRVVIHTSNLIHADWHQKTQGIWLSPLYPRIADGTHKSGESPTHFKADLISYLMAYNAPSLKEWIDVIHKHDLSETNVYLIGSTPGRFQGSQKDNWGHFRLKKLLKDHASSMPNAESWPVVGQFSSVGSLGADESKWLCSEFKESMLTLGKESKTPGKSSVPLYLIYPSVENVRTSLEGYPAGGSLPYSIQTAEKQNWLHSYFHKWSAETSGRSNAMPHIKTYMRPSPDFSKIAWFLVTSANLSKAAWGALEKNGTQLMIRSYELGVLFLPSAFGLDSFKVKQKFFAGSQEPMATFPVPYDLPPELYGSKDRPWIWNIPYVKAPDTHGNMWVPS
Compound,target or system,assay,system,setting,how to read,endpoint,result
Cc1ncsc1-c1ccc(C(C)NC(=O)C2CC(O)CN2C(=O)C(NC(=O)CCCCCCCCCCN2CCCC(Nc3ncc(Cl)c(Nc4ccccc4S(=O)(=O)C(C)C)n3)C2)C(C)(C)C)cc1 (stereo not shown),22Rv1,"RNA-seq, measured: MEIS1 mRNA",,concentration not given,baseline: DMSO,log2 fold change,-1.54
c1ccc(-c2n[nH]cc2-c2ccnc3ccccc23)nc1,CKA2 (Candida albicans),"kinase binding, MIB/MS competition",Candida albicans lysate,10 µM,baseline: DMSO,log2 fold change,-0.06
O=C(C[Se]C(=O)c1ccc2ccccc2n1)Nc1cccc(C(F)(F)F)c1,NCI60 CNS subpanel,cell growth,,"10 µM, 48 h, one-dose",,mean growth percent,-91.5%
Cn1ncc2cc(-c3cncc(Cl)c3N3CCC4(CCNC4=O)CC3)ccc21,LS174T,"gene expression, microarray, measured: CCDC80 mRNA",,"concentration not given, 24 h",baseline: untreated cells,log2 fold change,6.41
COCCOCCOCCNC(=O)Cc1cc(CC(=O)N[C@H]2C[C@H]3C(=O)Nc4cc(OCCOCCOCCOC)cc(n4)C(=O)N4CCC[C@H]4C(=O)Nc4cc(OCCOCCOCCOC)cc(n4)C(=O)N4CCC[C@H]4C(=O)Nc4cc(OCCOCCOCCOC)cc(n4)C(=O)N3C2)cc(CC(=O)N[C@H]2C[C@H]3C(=O)Nc4cc(OCCOCCOCCOC)cc(n4)C(=O)N4CCC[C@H]4C(=O)Nc4cc(OCCOCCOCCOC)cc(n4)C(=O)N4CCC[C@H]4C(=O)Nc4cc(OCCOCCOCCOC)cc(n4)C(=O)N3C2)c1,,"anion binding, ITC",phosphate buffer 35 mM,"pH 7.4, 298 K, together with: sodium sulfate",,TΔS,24.6 ± 0.3 kJ mol^–1
CNS(=O)(=O)Nc1nccc(Cc2c(C)c3ccc(Oc4ncccc4F)cc3oc2=O)c1F,COR-L88,cell viability,,7 days,,IC50,> 1 µM
CC(C)C[C@H](NC(=O)[C@@H](CCCCNC(=O)[C@@H](Cc1ccccc1)NC(=O)CCCCCNC(=O)CN1CCN(CC(=O)O)CCN(CC(=O)O)CCN(CC(=O)O)CC1)NC(=O)[C@H](Cc1ccc(O)cc1)NC(=O)[C@H](CO)NC(=O)[C@H](Cc1c[nH]c2ccccc12)NC(=O)[C@H](Cc1c[nH]cn1)NC(=O)[C@@H]1CCC(=O)N1)C(=O)N[C@@H](CCCNC(=N)N)C(=O)N1CCC[C@H]1C(=O)NCC(N)=O [indium-111 labelled],,,"female athymic nude mice, kidneys","intravenous, 0.037 MBq, 1 h",,tissue uptake,6.65 ± 1.45 %ID/g
CN1CCCNC(=O)c2cccc(c2)C(=O)NCCCN(C)CCCNc2cccc3c2C(=O)c2cccc(c2C3=O)NCCC1,SAS,"RNA-Seq, measured: CEBPB mRNA",,"1 µM, 6 h",baseline: untreated cells,log2 fold change,0.543
COC1CN([C@H]2CC[C@H]([C@@]3(C)Oc4c(Cl)cc(C(=O)NCc5c(SC)cc(C)[nH]c5=O)c(C)c4O3)CC2)C1,,"RNA-seq, measured: RGS2","human, whole blood","dose not given, 24 h",baseline: pretreatment baseline,log2 fold change,1.27
COC(=O)c1ccccc1C=NOCc1ccc2nc(-c3ccccc3)c(Nc3ccc(C(=O)O)cc3)n2c1 (mixture of isomers),TDP1,"enzyme activity, inhibitor",,"100 µM, unpurified compound",,inhibition,30.2%
CN1CCC[C@]1(C)/C=C/S(=O)(=O)NC(=O)Nc1c2c(cc3c1CCC3)CCC2,,,"human, whole blood ex vivo","12.5 mg twice daily, day 14, 24 h, multiple ascending dose, together with: LPS and ATP",,IL-1β inhibition,41.7%
Nc1ncc(-c2cc(-c3cnn(CC(F)(F)F)c3)ncc2F)nc1C(=O)NC1CNCC(F)C1 (stereo not shown),MAP4K2,KINOMEscan,,1 µM,baseline: DMSO control,remaining binding,100%
C=CC(=O)N1[C@@H](c2ccc3c(c2)OCO3)c2[nH]c3ccccc3c2C[C@H]1C(=O)N1CCN(C)CC1,human cyclin E1 wild type-3xFLAG:CDK2,"co-IP with TMT proteomics, measured: TUBA1A",,"concentration not given, Q71U36",baseline: wild type DMSO,relative co-enrichment,106%
COc1cc(O)ccc1CCC(c1ccc(O)cc1)c1cc2c(c(C)c1O)OC(c1ccc(O)cc1)CC2 (mixture of isomers),,,human blood,"3 µM, together with: A23187",,12-HETE level,4390 ± 555 pg/mL
CCC(=O)N(C)c1ccc(Cl)c(Cl)c1,Na+ channel site 2,radioligand binding,,10 µM,,inhibition,< 10%
C/C=C(/C)C(=O)O[C@@H]1C=C(C)CC[C@]2(O)[C@@H](C(C)C)CC(=O)[C@]12C,Helicobacter pylori,"microbial growth, broth dilution",,125 µg/mL,,inhibition,0%
COc1c(C=NOCc2ccc3nc(-c4ccccc4)c(Nc4ccc(C(=O)O)cc4)n3c2)c(C)nn1C (mixture of isomers),TDP1,"enzyme activity, inhibitor",,"100 µM, unpurified compound",,inhibition,-10.6%
C=CC(=O)Nc1cccc(Cn2ncc3cnc(Nc4cnn(CCOC)c4)nc32)c1,DCAMKL3 human,"binding, KINOMEscan",,100 nM,lower = stronger binding,percent of control,100%
COc1ccc(/C=C/C(=O)c2ccccc(=O)c2O)cc1,HepDES19,"cell growth or viability, MTS",,72 h,,CC50,35.5 µM
